Experimental data of several laboratories.
Parts stem from different laboratories: compare values within a part only. Positions count from the first letter of the parent shown.

Block 1
Target: Interferon regulatory factor 3, full length, phosphomimetic (IRF3, Homo sapiens, UniProt Q14653, residues 1-427, S386D/S396D/S398D/S402D/T404D/S405D)
Technique: protein-binding microarray
Form: double-stranded DNA, one strand shown
Sample: in vitro
Tested at: 2540 nM top
Setting: 60-bp whole probe
Added: salmon DNA 0.4 mg/ml
Baseline: random background probes
Direction: higher = stronger binding
Endpoint: fitted relative affinity
All sequences stand within: GCCTAGCAC … GTCTTGATTCGCTTGACGCTGCTG
Residues (chain): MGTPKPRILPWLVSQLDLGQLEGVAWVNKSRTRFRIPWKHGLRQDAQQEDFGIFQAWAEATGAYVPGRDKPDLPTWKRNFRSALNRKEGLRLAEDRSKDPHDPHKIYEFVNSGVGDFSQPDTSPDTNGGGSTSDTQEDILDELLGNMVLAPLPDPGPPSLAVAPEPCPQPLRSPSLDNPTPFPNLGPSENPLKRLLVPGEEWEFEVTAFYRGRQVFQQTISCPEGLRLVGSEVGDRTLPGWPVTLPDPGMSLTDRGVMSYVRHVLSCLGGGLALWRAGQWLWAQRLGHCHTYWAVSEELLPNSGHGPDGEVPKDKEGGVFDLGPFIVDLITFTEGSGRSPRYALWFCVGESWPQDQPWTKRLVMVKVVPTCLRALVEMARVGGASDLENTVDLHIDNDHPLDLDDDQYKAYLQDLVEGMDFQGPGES
TTAGGTTTCATTTTCCTTTAGTGCTAG: 7.66 z-score
CACTGACACCGATTTCATCACGTGCTA: 0.276 z-score
TCAAGCATGGATCTGGGACTGTGCTAG: -0.934 z-score
TTATGTTTCGGTCTCGGTTAGTGCTAG: 7.55 z-score
TTAGGACTGGACACTGGCTTAGTGCTA: -0.919 z-score

Block 2
Target: RNA binding protein fox-1 homolog 2, RRM domain, GST-SBP tag (RBFOX2, Homo sapiens, UniProt O43251-10, residues 100-194)
Technique: RNA Bind-n-Seq
Form: RNA
Sample: in vitro
Tested at: 365 nM
Setting: natural RNA segment, single round, ends assumed
Baseline: no-protein control
Direction: higher = stronger binding
Endpoint: RBNS enrichment (R)
Construct (chain): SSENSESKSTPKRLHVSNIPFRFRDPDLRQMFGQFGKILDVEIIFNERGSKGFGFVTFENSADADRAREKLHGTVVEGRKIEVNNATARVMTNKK
GGGAGUUCUACAGUCCGACGAUCCUUAACCUUCUUUCCCAAUGGAGCUUGGGGGACUAUUUAUAGAUUUCAUUUUUCUCACUGAGCCAGUGAUGGUUGCUAUCCUCUAGGAAAAAAAAAGAAACUGGGGUAGGUGGAAUUCUCGGGUGCCAA: 0.796
GGGAGUUCUACAGUCCGACGAUCCGGACACUGUUGGGAACCAAACUCUGUCUUGGAGCCUCCUUUUAGCUCACUCCACAAGUAAAUGGAUUUAAUCAAAGGUCACCUAUCUGCUUUUGAUUGUCUAGGUCACAUGGAAUUCUCGGGUGCCAA: 0.265
GGGAGUUCUACAGUCCGACGAUCACACAGAGCAGCGUAGACAUUUGUGAGCUUCGGUGCUGUUCAGUGCCUGCUUCUUCAUCACCUUAAUUUCUGCCAUAACCUGGACUUCGCUGACUGUGUGACUGCCCUGCUGGAAUUCUCGGGUGCCAA: 1.18
GGGAGUUCUACAGUCCGACGAUCACCCUGUACACACCUAGUUCAUAAUCCUCAUAAUUUAUCAACAAACACAAAAAAGUGUCUUACUUGAGAGUGAGUGUGUGUGUGUGCGUGUGCACGUGCACACAUGUGCAUGGAAUUCUCGGGUGCCAA: 3.35

Block 3
Target: CCNB1, cyclin fold, Cln2 fusion (human)
Technique: yeast growth competition, sequencing
Sample: yeast
Setting: weak parent motif
Baseline: not given
Direction: higher = stronger binding
Endpoint: normalised enrichment score
Parent: CDC6 docking peptide (human); TLKGRRLVFDNQL
R6G: 0.00462
R5L: 0.257
K3S: 0.469
D10W: 0.171

Other studies, line by line
PhoQ, residues 284 288 289 292 302 303 SLKLQV — fold induction (PhoP, residues 12 14 15 18 19 SPWRL (Escherichia coli, UniProt P23836); Sort-seq, item: YFP reporter; E. coli; PhoQ-PhoP variant library, added: 10 µM Mg2+; baseline: high Mg2+ state, higher = stronger signaling): 14.9

Some of these lines once more (block 2):
GGGAGUUCUACAGUCCGACGAUCCGGACACUGUUGGGAACCAAACUCUGUCUUGGAGCCUCCUUUUAGCUCACUCCACAAGUAAAUGGAUUUAAUCAAAGGUCACCUAUCUGCUUUUGAUUGUCUAGGUCACAUGGAAUUCUCGGGUGCCAA: 0.265
